Assay results collected from several papers.
Lines come from different studies, so protocols differ. ± marks the error that the study gave.

SMILES | cell line | assay | test system | conditions | how to read | measurement | value
CC(C)[C@H](NC(=O)OC(C)(C)C)C(=O)OC1CC2(C)C(CC(O)C3C(C4(C)CCCC(C)(C)O4)CCC32C)C2(C)CCC(O)C(C)(C)C12 (stereo partly drawn) | Hep3B | cell growth or viability, MTT | – | 24 h | – | IC50 | > 30 µM
Cc1ccc(N2Cc3cc(NC(=O)N4CCN(c5cccc(C(F)(F)F)c5)CC4)ccc3C2=O)cc1 | MRC-5 SV2 | – | – | concentration not given | – | cytotoxicity | not toxic
O=C(/C=C/c1ccc(O)cc1)OC(CO)C(=O)O (stereo not drawn) | HeLa, SW480 and HCT-116 | CCK-8 | – | concentration not given, 12 h | – | cytotoxicity | not toxic
N=C(N)NCCC[C@@H]1NC(=O)[C@H](CCCNC(=N)N)NC(=O)[C@H](CCCNC(=N)N)NC(=O)[C@H](Cc2ccc3ccccc3c2)NC(=O)[C@H](Cc2c[nH]c3ccccc23)NC(=O)[C@H](Cc2ccc3ccccc3c2)NC(=O)[C@H](CCCNC(=N)N)NC1=O | human red blood cells | hemolysis | – | – | – | HC50 | 175 µg/mL
CN(C)C(=O)C1CN1S(=O)(=O)c1ccc2c(C=O)c(N(C)C)ccc2c1 (stereo not drawn) | Balb/c 3T3 fibroblasts | cytotoxicity, neutral red uptake | DMEM with 5% FBS | 24 h | – | IC50 | 5 ± 0.7 µM
COCCNC(=O)C(NC(=O)C(O)(Cc1ccccc1)CN(Cc1ccc(Br)cc1)NC(=O)C(NC(=O)OC)C(C)(C)C)C(C)C (stereo not drawn) | Caco-2 | – | – | pH 7.4, 1% BSA in receiver | – | Papp A-to-B | 4.8 ± 0.1 ×10⁻⁶ cm/s
CC(C)=CCc1c2c(c(O)c3c(=O)c(-c4ccc(O)cc4)coc13)CC(C(C)(C)O)O2 (stereo not drawn) | A549 | cell growth or viability, MTT | – | 6.25 µg/mL | – | viability | 142%
CN(C)C(=O)C1CN1S(=O)(=O)c1ccc(C(F)(F)F)cc1 (stereo not drawn) | Balb/c 3T3 fibroblasts | cytotoxicity, neutral red uptake | DMEM with 5% FBS | 24 h | – | IC50 | 14 ± 1 µM
C=C1C(=O)OC2C1CCC1(C)CC1CCC1(C)OC21 (stereo not drawn) | human bone marrow cells | Annexin V/7-AAD flow cytometry | – | 25 µM, 12 h | reference: untreated | viability reduction | 22 to 26%
Nc1ncnc2c1c(Br)cn2[C@H]1C[C@H](O)[C@@H](CO)O1 | MRC-5 SV2 | cytotoxicity, resazurin | medium with 5% FBS | 72 h | – | EC50 | 6.1 ± 0.7 µM
COc1ccc(/C=C\C(=O)OC2CCC3(C)C(C(O)CC4(C)C3CC(O)C3C(C5(C)CCCC(C)(C)O5)CCC34C)C2(C)C)cc1 (stereo not drawn) | Hep3B | cell growth or viability, MTT | – | 24 h | – | IC50 | > 30 µM
CCCN(CC(=O)N(CCC)CC(=O)N(CCC)CC(=O)N(CCC)CC(=O)N(CC(=O)N(CCC)CC(=O)N(CCC)CC(=O)N(CCC)CC(=O)N(CCC)CC(=O)N(CC(=O)N(CCC)CC(=O)N(CCC)CC(=O)N(CCC)CC(=O)N(CCC)CC(=O)N(CC(N)=O)Cc1cn(CCCNC(=O)CCCOc2cccc(-c3nc4ccc(-c5nc6ccc(N7CCN(C)CC7)cc6[nH]5)cc4[nH]3)c2)nn1)Cc1cn(CCCNC(=O)CCCOc2cccc(-c3nc4ccc(-c5nc6ccc(N7CCN(C)CC7)cc6[nH]5)cc4[nH]3)c2)nn1)Cc1cn(CCCNC(=O)CCCOc2cccc(-c3nc4ccc(-c5nc6ccc(N7CCN(C)CC7)cc6[nH]5)cc4[nH]3)c2)nn1)C(=O)CNCc1cn(CCCNC(=O)CCCOc2cccc(-c3nc4ccc(-c5nc6ccc(N7CCN(C)CC7)cc6[nH]5)cc4[nH]3)c2)nn1 | C2C12 | flow cytometry | – | 5 µM, 14 h | – | ligand- and PI-positive cells | 13%

For quick reference, copied from above:
SMILES | cell line | assay | test system | conditions | how to read | measurement | value
COCCNC(=O)C(NC(=O)C(O)(Cc1ccccc1)CN(Cc1ccc(Br)cc1)NC(=O)C(NC(=O)OC)C(C)(C)C)C(C)C (stereo not drawn) | Caco-2 | – | – | pH 7.4, 1% BSA in receiver | – | Papp A-to-B | 4.8 ± 0.1 ×10⁻⁶ cm/s
